Results pooled from the literature.
Protocols differ between the studies behind these lines. Values joined by “and” are separate records of one study, mostly repeats; a detail may differ. Numbers after ± are the reported error.
rep main protease: Replicase polyprotein 1ab, main protease (rep, Severe acute respiratory syndrome coronavirus 2, UniProt P0DTD1)
Spike glycoprotein: Spike glycoprotein (Severe acute respiratory syndrome coronavirus 2, UniProt P0DTC2)
Sequence of UniProt P78348 (whole entry, looked up): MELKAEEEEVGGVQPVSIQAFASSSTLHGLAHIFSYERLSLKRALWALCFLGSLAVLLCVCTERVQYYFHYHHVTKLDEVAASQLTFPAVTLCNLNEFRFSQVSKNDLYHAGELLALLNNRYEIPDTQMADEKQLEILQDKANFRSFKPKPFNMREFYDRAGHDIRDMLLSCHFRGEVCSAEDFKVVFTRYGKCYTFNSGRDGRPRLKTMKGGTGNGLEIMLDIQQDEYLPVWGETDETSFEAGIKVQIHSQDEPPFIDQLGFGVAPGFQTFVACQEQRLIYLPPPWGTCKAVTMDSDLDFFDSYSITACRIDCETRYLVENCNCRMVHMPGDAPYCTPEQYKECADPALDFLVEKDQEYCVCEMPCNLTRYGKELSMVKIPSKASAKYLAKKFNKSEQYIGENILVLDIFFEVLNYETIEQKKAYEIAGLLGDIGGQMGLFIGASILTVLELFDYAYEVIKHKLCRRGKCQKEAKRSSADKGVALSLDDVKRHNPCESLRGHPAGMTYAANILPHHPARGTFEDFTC
Sequence of UniProt P9WHT9 (whole entry, looked up): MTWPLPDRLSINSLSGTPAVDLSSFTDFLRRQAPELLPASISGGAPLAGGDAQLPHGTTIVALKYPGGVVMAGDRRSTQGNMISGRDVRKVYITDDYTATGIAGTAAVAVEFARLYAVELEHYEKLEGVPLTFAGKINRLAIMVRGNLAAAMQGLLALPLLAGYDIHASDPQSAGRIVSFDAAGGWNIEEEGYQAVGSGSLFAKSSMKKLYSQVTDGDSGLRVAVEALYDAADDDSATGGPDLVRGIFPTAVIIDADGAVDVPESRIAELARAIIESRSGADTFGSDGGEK
Sequence of UniProt P21836 (whole entry, looked up): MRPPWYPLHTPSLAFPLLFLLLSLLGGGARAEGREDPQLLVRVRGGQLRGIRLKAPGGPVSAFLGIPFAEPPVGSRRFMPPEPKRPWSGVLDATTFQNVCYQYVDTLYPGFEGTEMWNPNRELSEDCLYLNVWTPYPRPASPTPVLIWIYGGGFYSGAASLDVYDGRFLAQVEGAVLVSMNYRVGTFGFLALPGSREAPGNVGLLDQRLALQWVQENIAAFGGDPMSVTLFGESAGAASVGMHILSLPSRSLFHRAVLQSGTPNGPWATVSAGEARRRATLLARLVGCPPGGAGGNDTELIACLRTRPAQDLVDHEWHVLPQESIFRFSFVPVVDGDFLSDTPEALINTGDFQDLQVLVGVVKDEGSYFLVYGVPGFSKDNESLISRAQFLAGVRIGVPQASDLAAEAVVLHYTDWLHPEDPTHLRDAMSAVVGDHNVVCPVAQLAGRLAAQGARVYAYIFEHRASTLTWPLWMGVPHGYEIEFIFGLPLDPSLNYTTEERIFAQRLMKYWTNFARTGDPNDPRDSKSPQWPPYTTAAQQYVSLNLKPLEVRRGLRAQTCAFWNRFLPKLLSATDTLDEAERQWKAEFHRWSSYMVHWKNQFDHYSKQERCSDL

Compound | tested on | assay | system | conditions | scale | endpoint | value
CC1=C2CC(C(=O)N[C@@H]3CN(C(=O)c4ccc5ccnn5c4)Cc4nccn4C3)=CN=C2NN1 | rep main protease | enzyme activity, inhibitor |  | 5 µM, mean of runs |  | inhibition | 11.5%
CCOP(=O)(OCC)Oc1ccc([N+](=O)[O-])cc1 | Acetylcholinesterase (Ache, Mus musculus, UniProt P21836) | end-plate current after AChE inhibition | mouse diaphragm | 4 µM, 4 min |  | increase in amplitude | 16%
Nc1ccc(-c2nsc(=O)o2)cc1 | Proteasome subunit beta, open-gate 20S proteasome (prcB, Mycobacterium tuberculosis, UniProt P9WHT9) | enzyme activity, inhibitor |  |  |  | kinact/KI | 49 M⁻¹ s⁻¹
CC[C@H](C)[C@H](NC(=O)[C@H](CC(C)C)NC(=O)[C@H](Cc1c[nH]c2ccccc12)NC(=O)[C@H](CCC(N)=O)NC(=O)[C@@H](NC(=O)[C@H](Cc1ccccc1)NC(=O)[C@H](C)NC(=O)[C@H](CCCCNC(=O)COCCOCCNC(=O)COCCOCCNC(=O)CC[C@H](NC(=O)CCCCCCCCCCCCCCCCCCC(=O)O)C(=O)O)NC(=O)[C@H](CCC(N)=O)NC(=O)[C@H](C)NC(=O)[C@@H](NC(=O)[C@H](CCCCN)NC(=O)[C@H](CC(=O)O)NC(=O)[C@H](CC(C)C)NC(=O)C(C)(C)NC(=O)[C@@H](NC(=O)[C@H](CO)NC(=O)[C@H](Cc1ccc(O)cc1)NC(=O)[C@H](CC(=O)O)NC(=O)[C@H](CO)NC(=O)[C@@H](NC(=O)[C@H](Cc1ccccc1)NC(=O)[C@@H](NC(=O)CNC(=O)[C@H](CCC(=O)O)NC(=O)C(C)(C)NC(=O)[C@@H](N)Cc1ccc(O)cc1)[C@@H](C)O)[C@@H](C)O)[C@@H](C)CC)[C@@H](C)CC)C(C)C)C(=O)N[C@@H](C)C(=O)NCC(=O)NCC(=O)N1CCC[C@H]1C(=O)N[C@@H](CO)C(=O)N[C@@H](CO)C(=O)NCC(=O)N[C@@H](C)C(=O)N1CCC[C@H]1C(=O)N1CCC[C@H]1C(=O)N1CCC[C@H]1C(=O)N[C@@H](CO)C(N)=O |  |  | healthy subjects, single ascending dose | 2.5 mg, baseline |  | serum lipase | 18.5 ± 10.6 U/L
CCc1c(C(=O)C(N)=O)c2c(OCC(=O)O)cccc2n1Cc1ccccc1 | Daboia russelii venom phospholipase A2 | enzyme activity, inhibitor | GA population | 1 µM, added: NOB substrate | relative to: venom alone | remaining activity | 72% and 82.7% and 84%
O=C(N[C@@H]1Cc2ccccc2[C@H]1NC(=O)c1cc(O)ccc1[N+](=O)[O-])c1ccc2[nH]nnc2n1 | rep main protease | enzyme activity, inhibitor |  | 5 µM, run 1 |  | inhibition | 14.3%
O=C(OC[C@H]1OC(OC(=O)c2cc(O)c(O)c(O)c2)[C@H](OC(=O)c2cc(O)c(O)c(O)c2)[C@@H](OC(=O)c2cc(O)c(O)c(O)c2)[C@@H]1OC(=O)c1cc(O)c(O)c(O)c1)c1cc(O)c(O)c(O)c1 (stereo partly shown) | Spike glycoprotein | binding, biolayer interferometry |  |  |  | kon | 558 M⁻¹ s⁻¹
CCOC(=O)[C@H](Cc1ccccc1)NC(=O)c1cc(Cl)c(OCCN2CCN(C)CC2)c(Cl)c1O.Cl.Cl | rep main protease | viral replication, Gluc reporter | SARS-CoV-2 | 20 µM |  | inhibition | -1.09%
Nc1ncnc2c([C@@H]3N[C@H](CO)[C@@H](O)[C@H]3O)c[nH]c12 | Marburg marburgvirus | virus production | HeLa, Musoke | 1.6 µM |  | inhibition | 39.8%
CO[C@H]1[C@@H](O)[C@H](O[C@@H]2[C@@H](C)O[C@@H](O[C@H]3CC[C@@]4(C)[C@@H](CC[C@@]56O[C@@]57CC[C@@H](C(C)=O)[C@@]7(C)[C@H](OC(C)=O)[C@@H](OC(=O)c5ccccc5)[C@H]46)C3)C[C@H]2OC)O[C@H](C)[C@H]1O | Spike glycoprotein | binding, biolayer interferometry |  |  |  | koff | 1.42 s⁻¹
Cl.Clc1ccc(Cn2c(CN3CCCC3)nc3ccccc32)cc1 | rep main protease | reporter gene (Gaussia luciferase), inhibitor |  | 20 µM |  | inhibition | 0.64%
O=C(N[C@@H]1CC[C@H]2C[C@@H]1CN2C(=O)c1cccc(-n2cncn2)c1)c1cc2c(=O)[nH]ccn2n1 | rep main protease | enzyme activity, inhibitor |  | 5 µM |  | inhibition | 9.4%
NC1=N[C@@](c2cccc(-c3cncnc3)c2)(c2ccnc(C(F)F)c2)c2cccc(F)c21 | rep main protease | reporter gene (Gaussia luciferase), inhibitor |  | 20 µM |  | inhibition | 0.646%
CC[C@H](C)[C@H](NC(=O)[C@@H]1CCCN1C(=O)[C@H](C)NC(=O)[C@@H]1CSSC[C@@H]2NC(=O)[C@H](CC(=O)O)NC(=O)[C@H](CCCNC(=N)N)NC(=O)[C@H](CCC(=O)O)NC(=O)[C@H](CCCNC(=N)N)NC(=O)CNC(=O)[C@H](CC(=O)O)NC(=O)[C@@H]3CSSC[C@H](NC(=O)[C@H](CCC(=O)O)NC(=O)[C@H](CC(C)C)NC(=O)CNC(=O)[C@H](C)NC(=O)[C@H](CSSC[C@H](NC(=O)[C@H](Cc4ccccc4)NC(=O)[C@@H](N)CO)C(=O)N[C@@H](CC(C)C)C(=O)N[C@@H](C(C)C)C(=O)N[C@@H](CCCCN)C(=O)N[C@@H](Cc4c[nH]c5ccccc45)C(=O)N[C@@H](CCCCN)C(=O)N[C@@H](CCC(N)=O)C(=O)N3)NC2=O)C(=O)N[C@@H](Cc2c[nH]c3ccccc23)C(=O)N[C@@H](CCCCN)C(=O)N[C@@H](CCCNC(=N)N)C(=O)N[C@@H](CO)C(=O)NCC(=O)N[C@@H](CC(N)=O)C(=O)N[C@@H](CCCCN)C(=O)N[C@@H](CO)C(=O)N[C@@H](CO)C(=O)N[C@@H](C(C)C)C(=O)N1)C(=O)N[C@H](C(=O)O)[C@@H](C)O | Acid-sensing ion channel 1 (ASIC1, Homo sapiens, UniProt P78348) | ion current, outside-out patch clamp | HEK-293T | 1 µM | relative to: same patch before toxin | deactivation slowing | 9 ± 1.2 fold
COC(=O)N[C@H](C(=O)N[C@@H](Cc1ccccc1)[C@@H](O)CN(Cc1ccc(-c2ccccn2)cc1)NC(=O)[C@@H](NC(=O)OC)C(C)(C)C)C(C)(C)C | rep main protease | reporter gene (mKate2), inhibitor |  | 20 µM |  | inhibition | 0.121%
Cn1cnc(Cn2c(=O)[nH]/c(=N\c3cc4cn(C)nc4cc3Cl)n(Cc3cc(F)c(F)cc3F)c2=O)n1 |  |  | human, normal renal function | oral, 375 mg, single dose, geometric mean |  | apparent volume of distribution (Vz/F) | 23.9 L

A few entries again:
Compound | tested on | assay | system | conditions | scale | endpoint | value
NC1=N[C@@](c2cccc(-c3cncnc3)c2)(c2ccnc(C(F)F)c2)c2cccc(F)c21 | rep main protease | reporter gene (Gaussia luciferase), inhibitor |  | 20 µM |  | inhibition | 0.646%
